Assay results of several laboratories.
Protocols differ between the studies behind these lines. ± marks the error that the study gave.

CCCC[C@H]1C(=O)N(C)[C@@H](CCCC)C(=O)N[C@@H](CCCNC(=O)CN2CCN(CC(=O)O)CCN(CC(=O)O)CCN(CC(=O)O)CC2)C(=O)N[C@H](C(=O)NCC(N)=O)CSCC(=O)N[C@@H](Cc2ccc(O)cc2)C(=O)N(C)[C@@H](C)C(=O)N[C@@H](CC(N)=O)C(=O)N2CCC[C@H]2C(=O)N[C@@H](Cc2c[nH]cn2)C(=O)N[C@@H](CC(C)C)C(=O)N(C)CC(=O)N[C@@H](Cc2c[nH]c3ccccc23)C(=O)N[C@@H](CO)C(=O)N[C@@H](Cc2c[nH]c3ccccc23)C(=O)N1C [gallium-68 labelled] — tumour uptake (static PET; NOD/SCID mice, CHO-hPD-L1 xenograft, CHO-hPD-L1 tumour; intravenous, 1 h post injection, after five PBS treatments): 5.9 ± 1.08 %ID/g
CC(C)C[C@@H](NC(=O)[C@@H](CCCCN)NC(=O)CNC(=O)CNC(=O)[C@@H]1CSSC[C@H](N)C(=O)NCC(=O)N[C@@H](CCCNC(=N)N)C(=O)N[C@@H](CCCNC(=N)N)C(=O)N[C@@H](C)C(=O)NCC(=O)NCC(=O)N[C@@H](CO)C(=O)N1)C(=O)N[C@H](C)C(=O)N[C@H](CCCCN)C(=O)N[C@H](CC(C)C)C(=O)N[C@H](C)C(=O)N[C@H](CCCCN)C(=O)N[C@H](CCCCN)C(=O)N[C@H](CC(C)C)C(=O)N[C@H](C)C(=O)N[C@H](CCCCN)C(=O)N[C@H](CC(C)C)C(=O)N[C@H](C)C(=O)N[C@H](CCCCN)C(=O)O — clearance (cynomolgus monkey, plasma; intravenous, 9 mg/kg, infusion): 44.2 mL/min
CC[C@H](C)[C@H](NC(=O)CNC(=O)[C@H](CC(=O)O)NC(=O)[C@H](CC(C)C)NC(=O)[C@@H](NC(=O)[C@H](CC(N)=O)NC(=O)[C@H](CCC(N)=O)NC(=O)CNC(=O)[C@H](CC(C)C)NC(=O)[C@H](CCCCN)NC(=O)[C@H](CCC(=O)O)NC(=O)[C@@H](NC(=O)[C@H](CCCCN)NC(=O)[C@H](CCC(=O)O)NC(=O)[C@H](Cc1ccccc1)NC(=O)[C@H](CC(C)C)NC(=O)[C@H](CCCCN)NC(=O)[C@H](Cc1c[nH]c2ccccc12)NC(=O)[C@@H](N)CCC(=O)O)[C@@H](C)CC)[C@@H](C)CC)C(=O)N[C@H](C(=O)N[C@@H](CCCCN)C(=O)N[C@@H](CC(C)C)C(=O)NCC(=O)N1CCC[C@H]1C(=O)N[C@@H](CC(C)C)C(=O)N[C@@H](CC(C)C)C(=O)N[C@@H](C)C(=O)N[C@@H](CC(C)C)C(=O)N[C@@H](CC(C)C)C(=O)NCC(=O)N[C@@H](CCC(N)=O)C(=O)N[C@@H](CC(C)C)C(=O)N[C@H](C(=O)N[C@@H](CCC(N)=O)C(=O)N[C@H](C(=O)N[C@@H](C)C(=O)N[C@@H](CC(C)C)C(N)=O)[C@@H](C)CC)[C@@H](C)O)[C@@H](C)CC — helicity (circular dichroism; phosphate buffer 10 mM; 1 to 5 µM, pH 7.5, approximate): ~30%
CC(C)[C@H](NC(=O)CNC(=O)[C@H](CCC(N)=O)NC(=O)[C@H](C)N)C(=O)O — unrelated adverse events (human; single dose, 1 mg/kg, unlikely related or unrelated): 0%
CC(C)(N)CNC(=O)O[C@H]1CCCC2(C1)OOC1(O2)C2CC3CC(C2)CC1C3 (some centres unmarked) — CLint (human liver microsomes): < 11.5 µL/min/mg
N=C(N)NCc1ccc(C(=O)NCCCC[C@H](NC(=O)N[C@@H](CCC(=O)O)C(=O)O)C(=O)O)cc1[211At] — tissue uptake (SCID mouse, PC-3 xenografts, bone; 21 h): 0.09 ± 0.03 %ID/g
CCCCCCCCCCCCC(=O)O.O=C1CCCC2C3CCCN4CCCC(CN12)C34 (centres unmarked) — log octanol-water partition coefficient (shake-flask; simulated body fluid; pH 7.4, 25 °C): 0.93
CSCC[C@@H]1NC(=O)[C@@H]2CSSC[C@H](NC(=O)[C@H](CO)NC(=O)[C@H](C)N)C(=O)N[C@@H](CCCNC(=N)N)C(=O)N[C@@H]([C@@H](C)O)C(=O)N3CCC[C@H]3C(=O)N[C@@H](CCCCN)C(=O)N[C@@H](CC(=O)O)C(=O)N[C@H]3CSSC[C@H](NC(=O)[C@H](CCCCN)NC(=O)[C@H](CCCNC(=N)N)NC(=O)[C@H](CC(N)=O)NC1=O)C(=O)N[C@@H](CCCCN)C(=O)N[C@H]1CSSC[C@H](NC(=O)[C@@H]4CCCN4C(=O)[C@H](CC(=O)O)NC(=O)[C@H](C)NC3=O)C(=O)N[C@@H](C)C(=O)N[C@@H](CCCCN)C(=O)N[C@@H](CCC(=O)O)C(=O)N[C@@H]([C@@H](C)O)C(=O)NCC(=O)N[C@@H](CSSC[C@@H](C(N)=O)NC(=O)[C@H](CCCNC(=N)N)NC(=O)[C@H](CC(N)=O)NC1=O)C(=O)N1CCC[C@H]1C(=O)N[C@@H](Cc1ccc(O)cc1)C(=O)NCC(=O)N[C@@H](CCCCN)C(=O)N2 — AST (DA rat, pristane-induced arthritis, serum; subcutaneous, 0.1 mg/kg once weekly, end of 21-day trial): 86.4 U/L
CSCC[C@H](NC(=O)CNC(=O)[C@H](CC(=O)O)NC(=O)[C@@H](NC(=O)[C@@H](NC(=O)[C@@H](NC(=O)CNC(=O)[C@H](CCC(N)=O)NC(=O)[C@H](CCSC)NC(=O)[C@H](CC(=O)O)NC(=O)[C@H](C)NC(=O)[C@H](C)NC(=O)[C@@H](NC(=O)[C@H](CO)NC(=O)[C@@H](N)CC(C)C)[C@@H](C)O)C(C)C)C(C)C)[C@@H](C)O)C(=O)N[C@@H](C)C(=O)N[C@@H](CO)C(=O)NCC(=O)N[C@@H](CC(C)C)C(=O)N[C@@H](CC(=O)O)C(=O)N[C@@H](CCCCN)C(=O)N[C@@H](CC(=O)O)C(=O)N[C@@H](Cc1ccc(O)cc1)C(=O)N[C@@H](CC(C)C)C(=O)N[C@@H](CCCCN)C(=O)N1CCC[C@H]1C(=O)N[C@@H](CC(=O)O)C(=O)N[C@@H](CC(=O)O)C(=O)O — probably related transient hypertension events (p53-positive advanced solid tumour patients; dose not given): 3
[CH3][Ti+2][O]C(=O)c1ccc([S][Au][PH](c2ccccc2)(c2ccccc2)c2ccccc2)cc1.c1cc[cH-]c1.c1cc[cH-]c1 — lethal dose (C57BL/6 female mice; sc, 5 consecutive days): 6 mg/kg/day
CC(C)[C@H](NC(=O)[C@H](Cc1c[nH]c2ccccc12)NC(=O)[C@H](Cc1ccccc1)NC(=O)[C@@H](NC(=O)[C@@H](NC(=O)[C@H](CCCCN)NC(=O)[C@@H](N)CCCCN)C(C)C)C(C)C)C(=O)N[C@@H](CCCCN)C(=O)N[C@@H](Cc1ccccc1)C(=O)N[C@@H](CCCCN)C(N)=O — cytokine level (ELISA, item: IFN-γ; mouse, blood; intravenous, 500 µg/kg, 5 days): 12.7 ± 1.53 pg/mL
O=c1cc(-c2ccccc2)oc2c(Br)c(O)c(O)c(O)c12 — MRT(0-inf) (C57BL/6 mouse, plasma; oral, 150 mg/kg, single dose): 9.3 h
COc1cc(NC(=O)C(=O)c2c(C)n(Cc3ccc(Cl)cc3)c3ccc(C)cc23)ccn1 — oral bioavailability (cynomolgus monkey, male and female, plasma; oral, 10 mg/kg, mean): 17.5%
CC[C@H](C)C(=O)N1CCC(NC(=O)Nc2ccc(OC(F)(F)F)c(F)c2)CC1 — participants with any Treatment‐Related TEAE (healthy volunteers, both sexes; oral, 8 mg single dose, fasted state): 0%
CSCC[C@H](NC(=O)CNC(=O)[C@H](CCCCN)NC(=O)[C@H](CC(C)C)NC(=O)[C@@H]1CCCN1C(=O)[C@H](CO)NC(=O)[C@H](Cc1c[nH]cn1)NC(=O)[C@H](Cc1c[nH]c2ccccc12)NC(=O)[C@H](CCCNC(=N)N)NC(=O)[C@H](CC(C)C)NC(=O)[C@H](CCCNC(=N)N)NC(=O)[C@H](Cc1c[nH]c2ccccc12)NC(=O)[C@H](CS)NC(=O)CN1CCN(CC(=O)O)CCN(CC(=O)O)CCN(CC(=O)O)CC1)C(=O)O [copper-64 labelled] — intact tracer remaining (radio-HPLC; mouse serum; 1 h, 37 °C): ~22.4%
O=S(=O)(O)C(F)(F)C(F)(F)OC(F)(C(F)(F)F)C(F)(F)OC(F)C(F)(F)F (centres unmarked) — age effect on concentration (human, serum): 0.017 ng/mL per year
COC(=O)C[C@H](NC(=O)[C@H](C)NC(=O)[C@@H](NC(=O)[C@H](CC(=O)OC)NC(=O)[C@@H](NC(=O)c1ccc2ccccc2n1)C(C)C)C(C)C)C(=O)COc1c(F)cccc1F — body weight (rat pups; 1 mg/kg, 1 h): 20.4 ± 1.67 g
CC(CCC(=O)NCC(=O)O)C1CCC2C3C(O)CC4CC(OC5OC(C(=O)O)C(O)C(O)C5O)CCC4(C)C3CCC12C (centres unmarked) — plasma concentration (human, SLCO1B1 *15/*35, plasma; geometric mean, sex-adjusted): 38.9 ng/mL
CC(=O)OC1O[C@@H]2O[C@@]3(C)CC[C@H]4[C@H](C)CCC([C@H]1C)[C@@]24OO3 (some centres unmarked) — dead embryos (Tg(fli1:EGFP) zebrafish embryos; 25 µg/mL, up to 48 hpf): 0 count
Cc1cccc(-c2cccc(C)n2)n1.[Cl-].[Cl-].[Ru+2].c1ccc(-c2ccccn2)nc1.c1ccc(-c2ccccn2)nc1 — release from nanoassemblies (phosphate buffer with NaCl; pH 6.0, 37 °C, photoactivated, dialysis): 70%

Excerpt of the above:
[CH3][Ti+2][O]C(=O)c1ccc([S][Au][PH](c2ccccc2)(c2ccccc2)c2ccccc2)cc1.c1cc[cH-]c1.c1cc[cH-]c1 — lethal dose (C57BL/6 female mice; sc, 5 consecutive days): 6 mg/kg/day
CC(C)[C@H](NC(=O)[C@H](Cc1c[nH]c2ccccc12)NC(=O)[C@H](Cc1ccccc1)NC(=O)[C@@H](NC(=O)[C@@H](NC(=O)[C@H](CCCCN)NC(=O)[C@@H](N)CCCCN)C(C)C)C(C)C)C(=O)N[C@@H](CCCCN)C(=O)N[C@@H](Cc1ccccc1)C(=O)N[C@@H](CCCCN)C(N)=O — cytokine level (ELISA, item: IFN-γ; mouse, blood; intravenous, 500 µg/kg, 5 days): 12.7 ± 1.53 pg/mL
O=c1cc(-c2ccccc2)oc2c(Br)c(O)c(O)c(O)c12 — MRT(0-inf) (C57BL/6 mouse, plasma; oral, 150 mg/kg, single dose): 9.3 h
